Results from different studies.
A part holds a random share of what one study measured. Substitutions count along the parent as printed.

Sample 1
Target: ABI1, truncated, D143A, DHFR fusion (Arabidopsis thaliana)
Technique: DHFR PCA, deep sequencing
Matrix: yeast
Setting: methotrexate growth selection, single substitutions
Added: (+)-ABA 0 µM
Relative to: wild-type fitted maximum
Direction: higher = stronger binding
Measurement: relative binding score
Starting sequence: PYL1, truncated, DHFR fusion (Arabidopsis thaliana); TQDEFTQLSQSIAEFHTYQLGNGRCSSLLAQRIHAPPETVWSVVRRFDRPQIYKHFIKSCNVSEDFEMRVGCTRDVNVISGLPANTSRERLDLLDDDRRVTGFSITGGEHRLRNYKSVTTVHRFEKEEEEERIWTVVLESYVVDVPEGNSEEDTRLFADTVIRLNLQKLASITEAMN; partner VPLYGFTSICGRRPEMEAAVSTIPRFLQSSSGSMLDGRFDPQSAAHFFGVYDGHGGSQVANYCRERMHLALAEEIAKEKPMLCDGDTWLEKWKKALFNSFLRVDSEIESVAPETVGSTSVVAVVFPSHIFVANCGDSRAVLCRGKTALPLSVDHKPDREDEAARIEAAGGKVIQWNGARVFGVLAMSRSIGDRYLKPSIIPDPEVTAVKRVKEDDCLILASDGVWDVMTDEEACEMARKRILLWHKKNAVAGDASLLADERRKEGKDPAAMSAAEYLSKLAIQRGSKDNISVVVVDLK
W41Q: -1.07%
E139V: 7.73%
N22D: 38.8%
T6A: 43.8%
T120K: -2.9%
D65S: 8.94%
G148W: 0.723%
S104E: -6.47%
I162A: 7.01%
G108K: 0.491%
L20R: 23.5%
I33T: 3.31%
E128N: 34.3%
E129M: 13.2%
Q10L: 3.12%
Q10W: -1.23%
R49L: -4.07%
E67P: 1.85%
I133N: 39.4%
T101M: 64.7%
D48E: 3.49%

Sample 2
Target: PABPC1L2, full length, GST fusion (mouse, UniProt A0ABA7IW68)
Technique: RNAcompete
Molecule type: RNA
Matrix: in vitro
Concentration: 20 nM
Setting: 7-mer, probes averaged, single round
Relative to: mean of 7-mers
Direction: higher = stronger binding
Measurement: 7-mer Z-score
Target sequence (chain): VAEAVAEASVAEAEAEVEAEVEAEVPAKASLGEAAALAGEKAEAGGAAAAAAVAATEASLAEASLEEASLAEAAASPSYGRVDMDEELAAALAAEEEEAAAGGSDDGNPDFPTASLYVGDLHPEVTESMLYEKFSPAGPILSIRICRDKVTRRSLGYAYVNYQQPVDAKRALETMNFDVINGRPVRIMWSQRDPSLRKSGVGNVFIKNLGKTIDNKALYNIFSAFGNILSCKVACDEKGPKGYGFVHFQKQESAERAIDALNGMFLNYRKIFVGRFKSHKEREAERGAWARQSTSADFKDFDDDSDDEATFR
UGGCGGC: 0.0152
CAGCGCA: -0.19
AUAAAGA: 3.61
GGCUAUC: 0.000733
AUAUGGG: 0.263
UGAUGGC: -0.0663
CUCUUCU: -0.478
UUUUAGA: 0.153
GAUCCGC: -0.383
UCUAGCG: -0.255
CCGACCA: -0.17
GUUAUCG: -0.242
CUUGUAG: -0.269
GAAUGUU: -0.266
CUCUUGA: -0.32
UCGUACA: -0.24
AUGCAGG: 0.298
ACACGAG: 0.244
AAUAAGG: 0.646
CCUGUAG: -0.289
CUGUGAC: -0.271
GCGUACC: -0.231

Sample 3
Target: CCNA2, cyclin fold, Cln2 fusion (human)
Technique: yeast growth competition, sequencing
Matrix: yeast
Setting: strong parent motif
Relative to: not given
Direction: higher = stronger binding
Measurement: normalised enrichment score
Starting sequence: E2F1 docking peptide (human); PPVKRRLDLETDH; partner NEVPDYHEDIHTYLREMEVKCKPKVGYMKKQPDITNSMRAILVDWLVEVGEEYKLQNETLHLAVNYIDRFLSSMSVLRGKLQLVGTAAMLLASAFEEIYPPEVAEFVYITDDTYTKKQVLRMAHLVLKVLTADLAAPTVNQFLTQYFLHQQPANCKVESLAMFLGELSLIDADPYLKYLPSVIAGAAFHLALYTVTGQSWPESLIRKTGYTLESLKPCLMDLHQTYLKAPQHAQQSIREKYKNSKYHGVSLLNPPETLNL
K4H: 2.18
P2T: 3.94
R6H: 1.76
K4P: 0.312
T11K: 4.21
D8V: 4.77
H13T: 4.97
K4A: 4.1
P1T: 3.58
V3R: 0.977
P1S: 1.54
D8K: 4.48
H13W: 4.24
R6D: -1.03
K4I: 1.14
P1D: 2.23
K4F: 1.14
H13R: 4.03
P1N: 4.37
D12K: 4.38
R5F: 0.752
V3A: 5.32
P1G: 3.86
P1H: 4.95

Sample 4
Target: CREB3L2, bZIP domain (human)
Technique: DHFR protein complementation
Matrix: yeast
Setting: single substitutions, most at no-binding floor
Relative to: wild-type JUN-FOS pair
Direction: higher = stronger binding
Measurement: binding fitness
Starting sequence: JUN, bZIP domain (human); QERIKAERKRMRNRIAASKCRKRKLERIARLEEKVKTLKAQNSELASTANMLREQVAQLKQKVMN; partner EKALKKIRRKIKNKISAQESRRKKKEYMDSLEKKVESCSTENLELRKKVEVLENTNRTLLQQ
K39C: -1.52 natural log
V35P: -1.5 natural log
E32L: -1.52 natural log
L38E: -1.36 natural log
L45E: -1.59 natural log
L59P: -1.72 natural log
S47D: -1.41 natural log
R30Q: -1.52 natural log
S47A: -1.41 natural log
L45C: -1.47 natural log
L45M: -1.53 natural log
K34T: -1.49 natural log
M51T: -1.54 natural log
K36V: -1.53 natural log
Q55W: -1.57 natural log
E33G: -1.51 natural log
M51W: -1.51 natural log
L45V: -1.43 natural log
N42F: -1.39 natural log
L31I: -1.57 natural log
L52A: -1.47 natural log
K39D: -1.43 natural log
R53V: -1.53 natural log
I28G: -1.5 natural log

Sample 5
Target: Sal-like protein 4, full length isoform B (SALL4, Homo sapiens, UniProt Q9UJQ4-2, residues 1-616)
Technique: universal PBM
Molecule type: double-stranded DNA, one strand shown
Matrix: in vitro
Concentration: not given
Setting: 8-mer, flanks averaged, mean of replicates
Direction: higher = stronger binding
Measurement: E-score
Residues (chain): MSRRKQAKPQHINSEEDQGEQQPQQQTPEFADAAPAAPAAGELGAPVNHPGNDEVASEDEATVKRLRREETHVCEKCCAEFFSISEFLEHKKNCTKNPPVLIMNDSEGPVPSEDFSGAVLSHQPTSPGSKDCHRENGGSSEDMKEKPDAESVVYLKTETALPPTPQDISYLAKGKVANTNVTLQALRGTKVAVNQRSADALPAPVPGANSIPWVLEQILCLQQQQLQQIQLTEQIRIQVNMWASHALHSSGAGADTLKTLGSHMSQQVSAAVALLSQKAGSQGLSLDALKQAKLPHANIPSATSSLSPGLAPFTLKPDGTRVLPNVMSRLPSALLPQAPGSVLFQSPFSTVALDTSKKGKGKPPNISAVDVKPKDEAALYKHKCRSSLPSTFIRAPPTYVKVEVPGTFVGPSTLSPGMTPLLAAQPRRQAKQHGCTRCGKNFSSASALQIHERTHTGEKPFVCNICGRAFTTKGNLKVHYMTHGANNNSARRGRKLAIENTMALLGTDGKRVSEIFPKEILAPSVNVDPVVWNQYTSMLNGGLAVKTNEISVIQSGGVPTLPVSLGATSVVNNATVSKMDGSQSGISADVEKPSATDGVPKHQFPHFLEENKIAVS
AAGGAAGT: 0.0169
AAGTAAAA: 0.244
CAGCAACC: -0.153
GCGTCGTA: 0.0586
ACCCATTG: -0.0824
CCACAGGG: -0.246
CGCCGCCG: -0.368
GTATACAC: 0.236
GGAGACCC: -0.289
CCAAACTC: -0.0465
AAATATTG: 0.439
CAGGAGGA: -0.337
CATGATGG: -0.113
ACACCTAG: 0.012
AGTCATAT: 0.36
AGCACTGC: -0.133
ACAGACAA: 0.234
ACCACAAG: -0.0603
GAATCACA: -0.152
CCGTAGCC: -0.319
GCGACAGC: -0.18
CCTGGCGC: -0.348
CCGATCTA: -0.059
ACAGTTCC: -0.0511
ACCTGATG: -0.107

Sample 6
Molecule: B1 (RNF187 RING domain)
Technique: yeast two-hybrid
Matrix: yeast
Setting: mostly zero background
Relative to: not given
Direction: higher = stronger interaction
Measurement: lacZ reporter activity
B1: RNF187 RING domain (UniProt Q5TA31); chain ALPAGPAEAACALCQRAPREPVRADCGHRFCRACVVRFWAEEDGPFPCPECADDCWQRAVEP
UBE2T UBC core domain (UniProt Q9NPD8): 0
UBE2C UBC core domain (UniProt O00762): 0
UBE2B UBC core domain (UniProt P63146): 0
UBE2S UBC core domain (UniProt Q16763): 0
UBE2D1 UBC core domain (UniProt P51668): 0
UBE2I UBC core domain (UniProt P63279): 0
UBE2M UBC core domain (UniProt P61081): 0
UBE2Q1 UBC core domain (UniProt Q7Z7E8): 0
UBE2J1 UBC core domain (UniProt Q9Y385): 0
UBE2O UBC core domain (UniProt Q9C0C9): 0
UBE2E3 UBC core domain (UniProt Q969T4): 0
UBE2L3 UBC core domain (UniProt P68036): 0
UBE2J2 UBC core domain (UniProt Q8N2K1): 0
UBE2Z UBC core domain (UniProt Q9H832): 0
UBE2R2 UBC core domain (UniProt Q712K3): 0
UBE2G1 UBC core domain (UniProt P62253): 0

Excerpt of the above (sample 2):
UCUAGCG: -0.255
AUAUGGG: 0.263
CUGUGAC: -0.271
CAGCGCA: -0.19
CCGACCA: -0.17
CUCUUGA: -0.32
GCGUACC: -0.231
